Results pooled from the literature.
Parts stem from different laboratories: compare values within a part only. Several values in a cell are separate wells, animals, samples, runs or records.
Chain of UniProt P21728 (whole entry, looked up): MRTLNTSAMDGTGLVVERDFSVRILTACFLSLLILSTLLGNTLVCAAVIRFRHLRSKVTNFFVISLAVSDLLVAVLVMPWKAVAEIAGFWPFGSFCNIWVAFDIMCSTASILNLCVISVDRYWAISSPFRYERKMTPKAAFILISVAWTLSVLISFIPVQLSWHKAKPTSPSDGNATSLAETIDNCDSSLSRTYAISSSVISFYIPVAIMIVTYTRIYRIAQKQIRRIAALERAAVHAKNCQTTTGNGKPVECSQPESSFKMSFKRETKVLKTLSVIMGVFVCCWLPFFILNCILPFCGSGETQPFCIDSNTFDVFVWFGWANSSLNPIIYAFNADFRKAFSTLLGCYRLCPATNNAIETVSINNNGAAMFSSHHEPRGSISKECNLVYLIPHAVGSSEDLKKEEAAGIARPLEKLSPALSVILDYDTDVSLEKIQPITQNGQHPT
Chain of UniProt P50406 (whole entry, looked up): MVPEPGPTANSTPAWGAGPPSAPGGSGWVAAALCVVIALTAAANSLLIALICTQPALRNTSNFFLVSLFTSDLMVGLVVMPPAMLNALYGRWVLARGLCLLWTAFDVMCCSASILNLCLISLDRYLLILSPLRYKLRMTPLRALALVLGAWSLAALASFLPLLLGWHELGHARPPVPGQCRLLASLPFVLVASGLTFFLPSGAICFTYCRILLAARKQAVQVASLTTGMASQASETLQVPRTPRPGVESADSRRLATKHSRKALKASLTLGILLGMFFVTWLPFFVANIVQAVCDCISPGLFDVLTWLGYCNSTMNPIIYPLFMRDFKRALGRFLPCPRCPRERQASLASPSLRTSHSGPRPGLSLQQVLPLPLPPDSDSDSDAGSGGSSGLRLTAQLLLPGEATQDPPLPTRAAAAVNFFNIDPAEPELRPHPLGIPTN
Chain of UniProt P08912 (whole entry, looked up): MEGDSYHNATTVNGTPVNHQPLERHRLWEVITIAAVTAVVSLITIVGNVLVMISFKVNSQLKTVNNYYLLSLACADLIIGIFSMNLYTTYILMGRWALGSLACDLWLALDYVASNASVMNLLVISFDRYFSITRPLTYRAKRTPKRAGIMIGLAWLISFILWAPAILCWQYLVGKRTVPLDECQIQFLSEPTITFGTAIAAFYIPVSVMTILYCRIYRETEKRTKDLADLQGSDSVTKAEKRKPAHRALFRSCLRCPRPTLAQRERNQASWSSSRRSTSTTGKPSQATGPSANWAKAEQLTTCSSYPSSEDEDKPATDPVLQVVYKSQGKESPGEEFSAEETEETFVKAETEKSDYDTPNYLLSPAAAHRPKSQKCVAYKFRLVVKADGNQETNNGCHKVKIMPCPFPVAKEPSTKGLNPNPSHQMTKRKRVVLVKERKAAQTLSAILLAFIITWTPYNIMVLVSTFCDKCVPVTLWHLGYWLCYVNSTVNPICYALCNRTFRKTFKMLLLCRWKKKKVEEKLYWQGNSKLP
Chain of UniProt Q9Y5N1 (whole entry, looked up): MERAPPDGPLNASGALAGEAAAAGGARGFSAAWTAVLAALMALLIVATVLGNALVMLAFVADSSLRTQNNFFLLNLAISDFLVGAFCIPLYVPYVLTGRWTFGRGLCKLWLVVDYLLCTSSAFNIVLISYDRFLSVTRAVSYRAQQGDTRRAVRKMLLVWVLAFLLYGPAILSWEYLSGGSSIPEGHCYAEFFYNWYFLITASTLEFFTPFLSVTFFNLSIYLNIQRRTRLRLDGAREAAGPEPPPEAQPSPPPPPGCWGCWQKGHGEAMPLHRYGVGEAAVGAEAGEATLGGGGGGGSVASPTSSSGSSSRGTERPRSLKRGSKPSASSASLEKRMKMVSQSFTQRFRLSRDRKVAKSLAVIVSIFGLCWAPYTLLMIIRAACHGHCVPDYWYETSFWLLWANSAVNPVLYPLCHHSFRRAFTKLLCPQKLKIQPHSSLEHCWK
Chain of UniProt Q5BJF2 (whole entry, looked up): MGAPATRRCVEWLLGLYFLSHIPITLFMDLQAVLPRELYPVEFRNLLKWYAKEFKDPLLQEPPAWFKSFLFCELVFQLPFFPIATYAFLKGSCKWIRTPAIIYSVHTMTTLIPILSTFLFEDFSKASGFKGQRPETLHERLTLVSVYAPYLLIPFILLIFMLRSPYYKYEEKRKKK

Sample 1
SMILES: CCOc1cc(N2C3COCC2CN(C(=O)[C@H]2C[C@H](O)CN2c2ccc(Cl)cc2)C3)ccc1Cl
Read-out: cell-free assay
Tested at: 10 µM
| target | inhibition [%] |
| --- | --- |
| ADRB3 (Homo sapiens, UniProt P13945) | -5.38 |
| TMEM97 (Homo sapiens, UniProt Q5BJF2) | 83.6 |
| DRD1 (Homo sapiens, UniProt P21728) | 40.3 |
| HRH3 (Homo sapiens, UniProt Q9Y5N1) | 17.3 |
| CHRM5 (Homo sapiens, UniProt P08912) | -4.29 |
| HTR6 (Homo sapiens, UniProt P50406) | -8.16 |
| ADRA2C (Homo sapiens, UniProt P18825) | 2.17 |
| HTR7 (Homo sapiens, UniProt P34969) | -15.4 |
| ADRB2 (Homo sapiens, UniProt P07550) | -4.63 |
| HRH4 (Homo sapiens, UniProt Q9H3N8) | -13.9 |
| CHRM2 (Homo sapiens, UniProt P08172) | 8.64 |
| ADRA1A (Homo sapiens, UniProt P35348) | 17 |

Sample 2
Target: DNA polymerase theta, helicase domain (POLQ, Homo sapiens, UniProt O75417)
Chain of UniProt O75417 (whole entry, looked up): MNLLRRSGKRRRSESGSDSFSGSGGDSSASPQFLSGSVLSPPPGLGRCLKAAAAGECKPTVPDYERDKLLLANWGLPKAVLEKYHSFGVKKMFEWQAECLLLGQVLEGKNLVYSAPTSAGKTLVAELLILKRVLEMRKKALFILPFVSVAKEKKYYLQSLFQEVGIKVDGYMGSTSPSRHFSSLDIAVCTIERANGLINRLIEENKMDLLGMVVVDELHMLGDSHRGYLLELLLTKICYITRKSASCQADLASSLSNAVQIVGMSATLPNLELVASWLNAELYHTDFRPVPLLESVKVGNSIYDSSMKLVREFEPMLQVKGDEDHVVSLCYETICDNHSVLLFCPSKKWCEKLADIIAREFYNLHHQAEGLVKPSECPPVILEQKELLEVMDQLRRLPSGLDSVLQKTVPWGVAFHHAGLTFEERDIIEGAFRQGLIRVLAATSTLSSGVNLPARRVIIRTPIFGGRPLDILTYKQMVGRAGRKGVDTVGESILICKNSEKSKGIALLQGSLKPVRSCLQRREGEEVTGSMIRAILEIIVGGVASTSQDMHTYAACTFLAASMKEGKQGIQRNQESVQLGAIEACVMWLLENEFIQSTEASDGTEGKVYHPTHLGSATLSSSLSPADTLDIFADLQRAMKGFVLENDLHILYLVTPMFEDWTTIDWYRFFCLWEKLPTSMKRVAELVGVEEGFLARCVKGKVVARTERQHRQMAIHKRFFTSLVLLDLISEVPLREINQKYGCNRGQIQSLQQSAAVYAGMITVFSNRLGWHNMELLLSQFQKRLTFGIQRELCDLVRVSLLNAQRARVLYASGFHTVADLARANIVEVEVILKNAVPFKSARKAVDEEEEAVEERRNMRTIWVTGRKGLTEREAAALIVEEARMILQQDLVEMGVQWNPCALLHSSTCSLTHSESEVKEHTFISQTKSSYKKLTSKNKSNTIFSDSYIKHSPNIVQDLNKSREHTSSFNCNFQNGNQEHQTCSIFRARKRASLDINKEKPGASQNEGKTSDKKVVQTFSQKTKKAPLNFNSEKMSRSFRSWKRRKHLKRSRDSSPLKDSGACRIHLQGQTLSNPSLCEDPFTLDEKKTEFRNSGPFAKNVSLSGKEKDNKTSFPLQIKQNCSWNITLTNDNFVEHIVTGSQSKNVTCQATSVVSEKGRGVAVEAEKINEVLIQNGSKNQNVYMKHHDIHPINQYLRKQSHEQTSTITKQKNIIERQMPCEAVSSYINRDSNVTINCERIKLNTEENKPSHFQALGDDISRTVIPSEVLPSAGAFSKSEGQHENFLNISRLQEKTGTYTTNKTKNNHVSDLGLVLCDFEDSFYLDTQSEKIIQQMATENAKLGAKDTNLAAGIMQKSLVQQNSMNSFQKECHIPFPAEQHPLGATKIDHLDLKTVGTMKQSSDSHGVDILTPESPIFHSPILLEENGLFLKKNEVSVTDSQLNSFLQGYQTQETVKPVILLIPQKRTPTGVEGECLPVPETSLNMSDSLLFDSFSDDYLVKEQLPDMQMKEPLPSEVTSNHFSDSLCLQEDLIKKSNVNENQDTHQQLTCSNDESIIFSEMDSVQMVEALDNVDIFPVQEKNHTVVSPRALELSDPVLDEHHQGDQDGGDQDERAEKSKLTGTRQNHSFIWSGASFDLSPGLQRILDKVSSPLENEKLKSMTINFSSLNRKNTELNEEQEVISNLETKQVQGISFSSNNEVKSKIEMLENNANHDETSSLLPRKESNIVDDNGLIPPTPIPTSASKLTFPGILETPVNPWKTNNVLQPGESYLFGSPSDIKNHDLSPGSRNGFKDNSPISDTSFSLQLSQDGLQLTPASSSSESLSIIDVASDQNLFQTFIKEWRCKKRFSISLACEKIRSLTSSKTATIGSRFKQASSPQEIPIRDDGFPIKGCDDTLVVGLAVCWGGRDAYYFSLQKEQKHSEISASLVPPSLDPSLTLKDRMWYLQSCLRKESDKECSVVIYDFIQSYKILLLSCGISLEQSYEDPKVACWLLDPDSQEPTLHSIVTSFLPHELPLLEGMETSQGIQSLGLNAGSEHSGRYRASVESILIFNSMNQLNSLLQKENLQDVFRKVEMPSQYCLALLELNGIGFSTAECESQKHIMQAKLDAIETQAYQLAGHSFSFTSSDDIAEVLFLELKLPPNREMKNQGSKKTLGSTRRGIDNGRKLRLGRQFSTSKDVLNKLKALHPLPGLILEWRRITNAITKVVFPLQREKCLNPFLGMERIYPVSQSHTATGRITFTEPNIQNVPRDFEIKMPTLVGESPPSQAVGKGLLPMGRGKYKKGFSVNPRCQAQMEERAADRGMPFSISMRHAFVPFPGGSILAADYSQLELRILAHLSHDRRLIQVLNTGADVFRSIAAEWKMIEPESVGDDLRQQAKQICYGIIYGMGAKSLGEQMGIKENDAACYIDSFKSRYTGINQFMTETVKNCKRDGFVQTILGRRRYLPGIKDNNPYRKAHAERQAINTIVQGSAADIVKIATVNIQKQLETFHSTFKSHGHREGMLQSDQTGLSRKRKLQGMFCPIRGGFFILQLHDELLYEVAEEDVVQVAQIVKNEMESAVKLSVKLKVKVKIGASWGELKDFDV
Mode: inhibitor
Tested at: concentration not given
With: without ssDNA
| Structure (SMILES) | remaining activity |
| --- | --- |
| C[C@H]1[C@H](C)CC[C@]2(C(=O)O)CC[C@]3(C)C(=CC[C@@H]4[C@@]5(C)C[C@@H](O)[C@H](O)[C@@](C)(CO)[C@@H]5CC[C@]43C)[C@H]12 | 57% and 57.4% |
| CC1=Nc2cc(C(=O)NCCc3ccc(Cl)cc3)ccc2Sc2ccc(C)cc21 | 65% and 60% |
| Cc1noc(C)c1S(=O)(=O)Nc1ccc(C(=O)Nc2ccc(Br)cc2)cc1 | 82.1% and 74% |
| CCCCCCCCCCC/C=C\C(C)(C)/C=C\CCCC(=O)O | 106% and 97.2% |
| O=C1c2c(O)ccc(O)c2C(=O)c2c(NCCNCCO)ccc(NCCNCCO)c21 | 94.1% and 93.4% |
| CC[N+](C)(CC)CCC[n+]1c(-c2ccccc2)c2cc(N)ccc2c2ccc(N)cc21 | 114% and 107% |
| COc1cc2c(cc1Cc1cccc(Cl)c1F)c(=O)c(C(=O)O)cn2[C@H](CO)C(C)C | 33% |
| COc1cc(NC(=O)CSc2ncc(S(=O)(=O)c3ccc(Br)cc3)c(=O)[nH]2)cc(OC)c1 | 98.7% and 93.8% |
| CCCCCCCCCCCCc1ccc(S(=O)(=O)Nc2nncs2)cc1 | 93.9% and 91% |
| CCCCCCCCCCCCCCCC(=O)OC[C@H](O)[C@H]1OC(=O)C(O)=C1O | 42.5% and 43.8% |
| CCOc1ccc2nc3cc(N)ccc3c(N)c2c1 | 103% and 95.2% |
| O=C(Nc1ccccc1F)c1ccc2c(Cl)c3c(nc2c1)CCC3 | 82.5% and 85.9% |

Sample 3
Compound: CC(=O)N[C@@H](Cc1c[nH]c2ccccc12)C(=O)N[C@@H](CCC(=O)C=[N+]=[N-])C(=O)OC(C)C
Matrix: EL4 tumour
Dose: dose not given
Relative to: vehicle
| test | test system | log2 fold change |
| --- | --- | --- |
| item: isoleucine | mouse, EL4 tumour-bearing | 0.397 |
| item: nicotinamide | mouse, EL4 tumour-bearing | -0.316 |
| item: phosphate | mouse, EL4 tumour-bearing | 0.0828 |
| item: 3'-AMP | mouse, EL4 tumour-bearing | 1.65 |
| item: 2-hydroxybutyrate/2-hydroxyisobutyrate | mouse, EL4 tumour-bearing | -0.0911 |
| item: glucosamine-6-phosphate | mouse, EL4 tumour-bearing | 0.788 |
| item: gamma-glutamyl-epsilon-lysine | mouse, EL4 tumour-bearing | 0.289 |
| item: daidzein | mouse, EL4 tumour-bearing | -1.1 |
| item: 5-aminovalerate | mouse, EL4 tumour-bearing | 0.336 |
| item: glycerate | mouse, EL4 tumour-bearing | 0.0713 |
| item: N,N,N-trimethyl-5-aminovalerate | Mus musculus | -0.372 |
| item: N-acetylhistidine | mouse, EL4 tumour-bearing | -0.177 |
| metabolomics, item: uridine 3'-monophosphate | mouse | 1.74 |
| item: carnosine | mouse, EL4 tumour-bearing | 2.26 |
| item: spermidine | mouse, EL4 tumour-bearing | -0.0627 |
| item: carotene diol (1) | Mus musculus | 1.18 |

Sample 4
Target: Phosphorylase b kinase gamma catalytic chain, liver/testis isoform (PHKG2, Homo sapiens, UniProt P15735)
Chain of UniProt P15735 (whole entry, looked up): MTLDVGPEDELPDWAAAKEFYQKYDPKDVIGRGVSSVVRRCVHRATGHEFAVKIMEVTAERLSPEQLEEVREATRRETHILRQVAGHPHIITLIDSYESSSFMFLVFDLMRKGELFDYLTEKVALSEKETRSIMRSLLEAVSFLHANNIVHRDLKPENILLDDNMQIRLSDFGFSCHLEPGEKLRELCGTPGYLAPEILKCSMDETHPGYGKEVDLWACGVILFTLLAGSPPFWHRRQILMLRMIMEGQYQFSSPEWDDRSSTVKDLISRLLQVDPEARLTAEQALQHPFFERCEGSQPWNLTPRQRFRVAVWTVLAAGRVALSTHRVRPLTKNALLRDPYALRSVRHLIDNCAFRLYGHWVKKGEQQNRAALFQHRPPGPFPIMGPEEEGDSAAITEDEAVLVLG
Read-out: enzyme activity
Mode: inhibitor
Tested at: 0.5 µM
Relative to: control
| Structure (SMILES) | remaining activity |
| --- | --- |
| O=C1Nc2ccc(Br)cc2/C1=C/c1cc2c([nH]1)CCCC2 | 90.5% |
| CN(C)S(=O)(=O)c1ccc2c(c1)/C(=C/c1cc3c([nH]1)CCCC3)C(=O)N2 | 78.8% |
| Cc1cc(Nc2cc(N3CCN(C)CC3)nc(Sc3ccc(NC(=O)C4CC4)cc3)n2)[nH]n1 | 90.6% |
| COc1cccc(-c2cc(=O)c3ccccc3o2)c1N | 117% |
| CN1CCN(c2ccc3nc(-c4c(N)c5c(F)cccc5[nH]c4=O)[nH]c3c2)CC1 | 87.6% |
| O=C1NC(=O)c2c1c1c3ccccc3[nH]c1n1cncc21 | 108% |
| CCCNC(=O)Nc1ccc(Oc2ncnc3cc(OC)c(OC)cc23)cc1Cl | 84.1% |
| O=Nc1c(-c2c(O)[nH]c3cc(Br)ccc23)[nH]c2ccccc12 | 92.5% |
| COc1ccc2c(c1)c(C1=C(c3c[nH]c4ccccc34)C(=O)NC1=O)cn2CCCN(C)C | 98.3% |
| O=C1Cc2c([nH]c3ccc(Br)cc23)-c2ccccc2N1 | 98.9% |
| N#Cc1cnc2cnc(NCc3cccnc3)cc2c1Nc1ccc(F)c(Cl)c1 | 88.3% |
| c1ccc2c(-c3ccncc3)c[nH]c2c1 | 101% |
| CCCCc1c(-c2ccc(OC)cc2)[nH]c2nccnc12 | 106% |
| O=C1Nc2ccccc2/C1=C\c1c(Cl)[nH]c2ccccc12 | 84.2% |
| c1ccc(-c2n[nH]c3c2oc2ccccc23)cc1 | 112% |
| Cc1ccc(S(=O)(=O)/C=C/C#N)cc1 | 109% |
| O=c1cc(N2CCOCC2)oc2c(-c3ccccc3)cccc12 | 97.2% |
| O=C(c1cc2cc(O)ccc2[nH]1)c1cc2cc(O)ccc2[nH]1 | 105% |

Some of these lines once more (sample 4):
| Structure (SMILES) | remaining activity |
| --- | --- |
| O=Nc1c(-c2c(O)[nH]c3cc(Br)ccc23)[nH]c2ccccc12 | 92.5% |
| COc1ccc2c(c1)c(C1=C(c3c[nH]c4ccccc34)C(=O)NC1=O)cn2CCCN(C)C | 98.3% |
| O=C1Cc2c([nH]c3ccc(Br)cc23)-c2ccccc2N1 | 98.9% |
| N#Cc1cnc2cnc(NCc3cccnc3)cc2c1Nc1ccc(F)c(Cl)c1 | 88.3% |
| c1ccc2c(-c3ccncc3)c[nH]c2c1 | 101% |
| CCCCc1c(-c2ccc(OC)cc2)[nH]c2nccnc12 | 106% |
| O=C1Nc2ccccc2/C1=C\c1c(Cl)[nH]c2ccccc12 | 84.2% |
| c1ccc(-c2n[nH]c3c2oc2ccccc23)cc1 | 112% |
